Results collected from several papers.
Parts stem from different laboratories: compare values within a part only.

Series 1
Target: Interferon regulatory factor 3, full length, phosphomimetic (IRF3, Homo sapiens, UniProt Q14653, residues 1-427, S386D/S396D/S398D/S402D/T404D/S405D)
Sequence of UniProt Q14653 (whole entry, unmodified, looked up): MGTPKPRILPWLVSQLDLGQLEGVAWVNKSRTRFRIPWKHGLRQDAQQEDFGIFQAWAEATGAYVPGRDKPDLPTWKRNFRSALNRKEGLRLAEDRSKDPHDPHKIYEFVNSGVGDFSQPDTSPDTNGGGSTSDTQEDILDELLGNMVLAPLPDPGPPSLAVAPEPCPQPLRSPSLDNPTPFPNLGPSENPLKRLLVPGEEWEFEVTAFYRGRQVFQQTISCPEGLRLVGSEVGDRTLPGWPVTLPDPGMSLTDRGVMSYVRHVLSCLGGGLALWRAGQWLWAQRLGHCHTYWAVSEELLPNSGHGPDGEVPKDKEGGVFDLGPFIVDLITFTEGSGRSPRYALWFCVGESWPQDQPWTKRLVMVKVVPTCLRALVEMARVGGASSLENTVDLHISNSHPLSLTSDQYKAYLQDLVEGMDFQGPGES
Method: protein-binding microarray
Form: double-stranded DNA, one strand shown
Sample: in vitro
Concentration: 2540 nM top
Notes: 60-bp whole probe
Together with: salmon DNA 0.4 mg/ml
Reference: random background probes
Direction: higher = stronger binding
Shared flanks, not repeated: GCCTAGCAC … GTCTTGATTCGCTTGACGCTGCTG
Strand	fitted relative affinity
TTAGGACTGGGTATCGGTTAGTGCTAG	0.475 z-score
GACGAACTGGGGTATCGTGACGTGCTA	-0.394 z-score
TCACCTCTAACTTCCCAACTGTGCTAG	0.532 z-score
GACAAACTGAGTTTCGAGACGTGCTAG	1.3 z-score
CTTGGTAAATTTAGCCGACGGTGCTAG	-0.328 z-score
GACGAACTGGGGTAACGAGACGTGCTA	-0.373 z-score
GACGGTATCAGTTTCGAGACGTGCTAG	5.74 z-score
GCATCGTAAGCAAAAATGATGTGCTAG	0.0318 z-score
CATCTTCTGGATTTTTTAGCGTGCTAG	2.25 z-score
GACGGTTTCGGTATCGGTACGTGCTAG	8.67 z-score
TTAGGACTGCTACTGCTTTGGTGCTAG	-0.649 z-score
GACGATTTCAGATTCGAGACGTGCTAG	3.06 z-score
GACGCTCTCCTTATCCTGACGTGCTAG	1.56 z-score
GACGATTTCAGCCTCGAGACGTGCTAG	0.668 z-score
TACGGTTTCGGGTATCGGGACGTGCTA	4.26 z-score
TTAGATATAAGTCTCGATTAGTGCTAG	-0.101 z-score
AACGGTTTCGGACTGGGGACGTGCTAG	4.32 z-score
GACGGTCTCGCTATCGGGACGTGCTAG	0.644 z-score
CACGGACTGGGTATCGGGACGTGCTAG	-0.246 z-score

Series 2
Target: RING finger protein unkempt homolog, zinc fingers 1-6, GST-SBP tag (UNK, Homo sapiens, UniProt Q9C0B0, residues 30-357)
Sequence of UniProt Q9C0B0 (30-357, looked up): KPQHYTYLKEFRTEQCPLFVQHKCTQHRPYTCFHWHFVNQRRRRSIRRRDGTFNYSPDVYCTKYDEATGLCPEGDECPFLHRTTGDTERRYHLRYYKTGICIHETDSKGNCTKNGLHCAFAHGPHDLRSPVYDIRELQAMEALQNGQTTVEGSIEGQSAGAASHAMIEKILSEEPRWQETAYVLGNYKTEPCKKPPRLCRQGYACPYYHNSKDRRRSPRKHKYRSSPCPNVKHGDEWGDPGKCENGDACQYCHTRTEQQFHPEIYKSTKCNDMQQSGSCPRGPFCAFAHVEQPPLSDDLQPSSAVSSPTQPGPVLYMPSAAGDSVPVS
Method: RNA Bind-n-Seq
Form: RNA
Sample: in vitro
Concentration: not given
Notes: RNA with constant flanks, human and mouse sites, ends assumed
Reference: input RNA pool
Direction: higher = stronger binding
Strand	bound/input enrichment
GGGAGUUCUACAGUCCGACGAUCUCAGGUGGCUAGAGCUGGGGACCUCAGACGACCAGCUUGCUUAUUUCUUUUUUUUUUCUCUUUUUUCUGUCUCUCCCGGCUGCUGUCCCUGCAUGAGAGAACUCCCACCUUCUGCUCUGGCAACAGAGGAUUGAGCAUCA	1.48 ratio
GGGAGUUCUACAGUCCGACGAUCUUGCAUAAGACAGUUAUGCAAAAUGGAGCUGGAGGAGCUUUAUUUGUGCACAGAGAUACUCCUGAGAAUAACCCUGAUACUCCAUUUGAUUUCACACCAGAAAACUAUAAGAGGAUAGAGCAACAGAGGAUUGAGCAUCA	0.175 ratio
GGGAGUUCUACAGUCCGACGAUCGUUGGAUUUCAUUUCCCCAGGUCUUCAGUGUUGAUGUAAAUGUGUUUUGUAGUGUUGCUUAGCACUUUGCGCAUUGUGUAAGUUGGGUAACAAAAAUGGCAAAAGAAAUGCAGAUUUCCCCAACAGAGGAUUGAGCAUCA	0.391 ratio
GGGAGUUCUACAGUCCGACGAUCACAGUUACUUAAUUUCUAGAGUUCAGGCCUCUGGGAUCAACCCCAGACUGGGCCAGAAUGUUAGUGAAGGUUUUAUUGUGCCCGGUUGGAGGAUAACGUUCUUUGGGUACUUUUUGUGGGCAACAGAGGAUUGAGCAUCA	0.281 ratio
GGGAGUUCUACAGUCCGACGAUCGAAGACCUGAAAAAGCUGCAUGAUGAAAAAAUCGAGUCAUUGAGAGCUGAAUUUCAGUGCUUAGAACAAAAUCACCUGAAGGAAUUAGAGGACACACUGCACAUCAGGCACACACAGGAGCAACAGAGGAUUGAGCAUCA	0.629 ratio
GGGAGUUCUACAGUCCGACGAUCGCAAGAUUUCUGACAAUGUGCAAUAGACACUUUGGCAGCGUUAUUGCACAAACUAUUCGGACUCAAAAGACAGAUCAGUUUCCACUUUUCCUGAUUAUCAUGGGAAAGCGAUCAUCUAAUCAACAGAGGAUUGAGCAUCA	0.101 ratio

Series 3
Target: RNA binding protein fox-1 homolog 2, RRM domain, GST-SBP tag (RBFOX2, Homo sapiens, UniProt O43251-10, residues 100-194)
Method: RNA Bind-n-Seq
Form: RNA
Sample: in vitro
Concentration: 365 nM
Notes: natural RNA segment, single round, ends assumed
Reference: no-protein control
Direction: higher = stronger binding
Construct (chain): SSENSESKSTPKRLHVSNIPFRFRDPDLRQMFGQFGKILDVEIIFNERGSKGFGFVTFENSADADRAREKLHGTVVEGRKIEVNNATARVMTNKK
Strand	RBNS enrichment (R)
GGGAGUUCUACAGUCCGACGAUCACCCUUUGCUGCUGACCUCGGCUGCUCCUCUCACAGACCCUCUUUGGCCCCCUGCCCUCCUCUCCCUCCCAGAUGGACCCUUCCAUGGGAGGAAAUAAAGUUUCCAUCGCUGGAAUUCUCGGGUGCCAA	0.301
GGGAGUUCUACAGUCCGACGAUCAGGCAUGAUUUUUAUCAGUGAUUUAUAUUGGGAAUGAAAACCGUUCCUGCCUCCUCCCAAGGGAAGGAAGUGAGAGCAGUGGUCCUCUGGUUCAUUUAGCUGUUUGGCAGUGGAAUUCUCGGGUGCCAA	0.486
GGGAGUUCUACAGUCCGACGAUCGGUAAGUAUAAGUAUUCAAGUAUUUGAUCAGUAAGUCACAGUUAUCUCCAGUGCAUUAAAUAACCUUCAUCAAGAAAUAGGUUAUAGGUAAAAUCUCUGAAGGAUCAUCUUGGAAUUCUCGGGUGCCAA	0.64
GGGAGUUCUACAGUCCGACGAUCGACUCUGCUGCCUCCAUGUCCUCUCUGGGACCUGACUCUCCACAGGGAGGGAGACUCCUUGUCCCAGACCUCAGUCCUGCUUCCAACUGCCUUCCUUGCCCUCACUGUUCUGGAAUUCUCGGGUGCCAA	1.74
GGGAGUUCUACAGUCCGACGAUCUUUUUUAAAAUACAUGAAAAAUGUAGUAAAUCACUAAAAUUCAUUUAUCCUUCUCCUUUGAAAGAUUUUCAAUAUUUUAGUAUAAUAAAGAGCUGUAUGUUGAGCCAUCUUGGAAUUCUCGGGUGCCAA	0.334
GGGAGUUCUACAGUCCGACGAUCUAAAUGAAUCCCUGGGCAGGGAAUAUGGGCUGGCCGGCUGCACCUUGGUGAACCUGCUGGUUAGGGCAGCAGCAGAGGUGAGGCUGUUCCUCUCUCUCUCUGUCUCUCUCUGGAAUUCUCGGGUGCCAA	0.371
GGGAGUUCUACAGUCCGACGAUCGGAUCUCCCCAAGUAUGUCCUACUCUGUGCACCCUGUGCUGGAGCCCUACUUUUCACCCCGCUGCCCCUCGGGAGGACUGCAGCUCGCUCCUGUUGGGAUCGCAAAGCUCUGGAAUUCUCGGGUGCCAA	0.65
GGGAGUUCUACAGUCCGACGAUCUUUCAAUUUCCUGGGACUAUCCCAGAGAAAGACCUCAGUCUCUUCUAUUCACACUAUGCUUCCUAGAGACAGAACAAAAAUCAUGUAGGGAAAUUGGGGCUAAUGAGAUCUGGAAUUCUCGGGUGCCAA	0.284

Series 4
Target: PABPC1L2, full length, GST fusion (mouse, UniProt A0ABA7IW68)
Method: RNAcompete
Form: RNA
Sample: in vitro
Concentration: 20 nM
Notes: 7-mer, probes averaged, single round
Reference: mean of 7-mers
Direction: higher = stronger binding
Strand	7-mer Z-score
CCCAAUA	-0.0554
AGUACGU	-0.208
AGGUCCU	-0.289
CGCACUU	-0.309
GCACGAA	0.122
UCAUGAU	-0.219
UCUCUGA	-0.151
GUCAGGA	0.182
CUUAGAC	-0.199
UAAGCUU	-0.278
AACCUAA	0.126
AUUCUAC	-0.177
UGCACAA	0.0768
GGCGUCG	-0.197
CUUCCUG	-0.34
CGCGGCA	-0.0844
AUGGACA	0.046
GUAUGAA	0.0932
UUAGGGU	-0.021
UCUUACU	-0.327
CGGGCCC	-0.376
ACAUAAG	0.206
CUAGAAG	-0.0718
GAGUGCC	-0.217
ACUUACC	-0.26

A few entries again (series 1):
Strand	fitted relative affinity
CTTGGTAAATTTAGCCGACGGTGCTAG	-0.328 z-score
GACGAACTGGGGTAACGAGACGTGCTA	-0.373 z-score
GACGGTATCAGTTTCGAGACGTGCTAG	5.74 z-score
GCATCGTAAGCAAAAATGATGTGCTAG	0.0318 z-score
CATCTTCTGGATTTTTTAGCGTGCTAG	2.25 z-score
GACGGTTTCGGTATCGGTACGTGCTAG	8.67 z-score
TTAGGACTGCTACTGCTTTGGTGCTAG	-0.649 z-score
GACGATTTCAGATTCGAGACGTGCTAG	3.06 z-score
